Assay results of several laboratories.
Parts stem from different laboratories: compare values within a part only. Values joined by “and” are separate records of one study, mostly repeats; a detail may differ.
UniProt P29320, sequence (whole entry, looked up): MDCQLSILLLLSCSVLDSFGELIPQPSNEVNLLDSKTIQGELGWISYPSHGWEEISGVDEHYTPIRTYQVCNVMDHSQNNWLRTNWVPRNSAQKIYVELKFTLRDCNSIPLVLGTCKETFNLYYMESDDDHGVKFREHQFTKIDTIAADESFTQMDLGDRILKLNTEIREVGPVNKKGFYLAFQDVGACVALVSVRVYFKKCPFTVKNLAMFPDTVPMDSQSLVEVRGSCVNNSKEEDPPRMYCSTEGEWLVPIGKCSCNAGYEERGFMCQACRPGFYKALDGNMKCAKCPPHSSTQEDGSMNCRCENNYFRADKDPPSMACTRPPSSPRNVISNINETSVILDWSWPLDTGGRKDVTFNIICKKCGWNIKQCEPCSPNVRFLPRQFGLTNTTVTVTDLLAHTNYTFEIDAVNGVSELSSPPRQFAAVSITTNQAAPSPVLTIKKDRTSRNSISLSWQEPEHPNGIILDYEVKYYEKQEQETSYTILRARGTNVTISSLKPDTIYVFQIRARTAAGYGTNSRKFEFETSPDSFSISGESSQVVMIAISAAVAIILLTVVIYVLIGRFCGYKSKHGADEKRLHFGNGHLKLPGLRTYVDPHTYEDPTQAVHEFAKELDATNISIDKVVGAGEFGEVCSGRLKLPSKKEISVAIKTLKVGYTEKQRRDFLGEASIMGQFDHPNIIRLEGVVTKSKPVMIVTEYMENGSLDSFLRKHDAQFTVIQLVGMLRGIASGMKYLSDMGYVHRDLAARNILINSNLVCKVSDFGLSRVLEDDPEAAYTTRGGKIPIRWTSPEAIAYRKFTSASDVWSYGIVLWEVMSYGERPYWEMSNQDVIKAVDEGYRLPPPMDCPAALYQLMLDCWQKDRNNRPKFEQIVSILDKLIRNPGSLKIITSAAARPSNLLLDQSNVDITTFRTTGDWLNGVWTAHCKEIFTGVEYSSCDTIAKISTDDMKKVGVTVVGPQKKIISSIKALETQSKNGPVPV
UniProt Q16816, sequence (whole entry, looked up): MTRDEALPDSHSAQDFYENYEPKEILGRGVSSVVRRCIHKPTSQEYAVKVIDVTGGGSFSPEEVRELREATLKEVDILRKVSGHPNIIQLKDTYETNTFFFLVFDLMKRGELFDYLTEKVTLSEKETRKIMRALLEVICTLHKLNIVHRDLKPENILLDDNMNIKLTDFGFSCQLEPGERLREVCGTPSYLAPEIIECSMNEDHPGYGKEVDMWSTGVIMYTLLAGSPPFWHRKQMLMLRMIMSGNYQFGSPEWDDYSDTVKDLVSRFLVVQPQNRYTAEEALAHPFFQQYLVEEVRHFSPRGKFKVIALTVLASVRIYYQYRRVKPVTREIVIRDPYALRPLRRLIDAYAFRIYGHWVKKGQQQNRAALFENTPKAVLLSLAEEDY
UniProt P48736, sequence (whole entry, looked up): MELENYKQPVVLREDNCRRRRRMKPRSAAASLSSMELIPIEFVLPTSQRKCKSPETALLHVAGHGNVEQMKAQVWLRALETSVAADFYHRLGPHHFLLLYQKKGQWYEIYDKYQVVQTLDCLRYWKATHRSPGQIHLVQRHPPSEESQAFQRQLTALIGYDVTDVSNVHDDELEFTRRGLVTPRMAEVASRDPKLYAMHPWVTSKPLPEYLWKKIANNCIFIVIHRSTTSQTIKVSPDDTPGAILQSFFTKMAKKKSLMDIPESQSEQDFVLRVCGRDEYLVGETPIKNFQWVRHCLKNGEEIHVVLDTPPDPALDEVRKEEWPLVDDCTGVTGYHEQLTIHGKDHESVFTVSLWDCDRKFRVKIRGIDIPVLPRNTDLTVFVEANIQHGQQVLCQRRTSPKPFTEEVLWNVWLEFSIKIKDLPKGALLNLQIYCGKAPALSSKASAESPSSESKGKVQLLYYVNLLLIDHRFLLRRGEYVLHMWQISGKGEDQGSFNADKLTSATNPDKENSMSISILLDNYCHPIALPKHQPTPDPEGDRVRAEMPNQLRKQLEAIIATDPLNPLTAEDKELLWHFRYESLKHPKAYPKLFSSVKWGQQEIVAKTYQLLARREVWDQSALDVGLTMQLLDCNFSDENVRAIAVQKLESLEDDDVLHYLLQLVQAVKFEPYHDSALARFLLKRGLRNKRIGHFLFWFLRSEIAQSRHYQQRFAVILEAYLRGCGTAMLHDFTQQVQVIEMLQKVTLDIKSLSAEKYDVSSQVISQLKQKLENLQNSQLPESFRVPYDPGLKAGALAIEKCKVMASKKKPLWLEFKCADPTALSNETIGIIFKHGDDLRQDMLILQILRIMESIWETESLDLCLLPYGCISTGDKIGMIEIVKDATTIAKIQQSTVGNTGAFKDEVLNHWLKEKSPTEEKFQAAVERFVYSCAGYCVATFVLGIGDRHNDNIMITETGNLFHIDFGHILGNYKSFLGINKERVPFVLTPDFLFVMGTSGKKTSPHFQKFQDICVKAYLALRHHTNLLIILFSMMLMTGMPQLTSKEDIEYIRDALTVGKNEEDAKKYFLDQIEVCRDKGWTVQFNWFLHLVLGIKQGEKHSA
UniProt Q15831, sequence (whole entry, looked up): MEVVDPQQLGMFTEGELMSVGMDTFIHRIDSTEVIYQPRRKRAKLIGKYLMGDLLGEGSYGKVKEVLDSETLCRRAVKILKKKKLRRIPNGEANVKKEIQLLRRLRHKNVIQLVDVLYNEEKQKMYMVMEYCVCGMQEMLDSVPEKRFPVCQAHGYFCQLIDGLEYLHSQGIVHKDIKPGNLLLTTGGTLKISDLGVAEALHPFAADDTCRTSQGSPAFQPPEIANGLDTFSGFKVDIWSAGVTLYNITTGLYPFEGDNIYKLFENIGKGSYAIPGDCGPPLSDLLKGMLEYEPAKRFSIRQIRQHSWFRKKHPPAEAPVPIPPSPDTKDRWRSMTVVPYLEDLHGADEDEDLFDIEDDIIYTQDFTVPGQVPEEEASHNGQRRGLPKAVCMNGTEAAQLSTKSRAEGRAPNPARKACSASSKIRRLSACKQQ
UniProt P10721, sequence (whole entry, unmodified, looked up): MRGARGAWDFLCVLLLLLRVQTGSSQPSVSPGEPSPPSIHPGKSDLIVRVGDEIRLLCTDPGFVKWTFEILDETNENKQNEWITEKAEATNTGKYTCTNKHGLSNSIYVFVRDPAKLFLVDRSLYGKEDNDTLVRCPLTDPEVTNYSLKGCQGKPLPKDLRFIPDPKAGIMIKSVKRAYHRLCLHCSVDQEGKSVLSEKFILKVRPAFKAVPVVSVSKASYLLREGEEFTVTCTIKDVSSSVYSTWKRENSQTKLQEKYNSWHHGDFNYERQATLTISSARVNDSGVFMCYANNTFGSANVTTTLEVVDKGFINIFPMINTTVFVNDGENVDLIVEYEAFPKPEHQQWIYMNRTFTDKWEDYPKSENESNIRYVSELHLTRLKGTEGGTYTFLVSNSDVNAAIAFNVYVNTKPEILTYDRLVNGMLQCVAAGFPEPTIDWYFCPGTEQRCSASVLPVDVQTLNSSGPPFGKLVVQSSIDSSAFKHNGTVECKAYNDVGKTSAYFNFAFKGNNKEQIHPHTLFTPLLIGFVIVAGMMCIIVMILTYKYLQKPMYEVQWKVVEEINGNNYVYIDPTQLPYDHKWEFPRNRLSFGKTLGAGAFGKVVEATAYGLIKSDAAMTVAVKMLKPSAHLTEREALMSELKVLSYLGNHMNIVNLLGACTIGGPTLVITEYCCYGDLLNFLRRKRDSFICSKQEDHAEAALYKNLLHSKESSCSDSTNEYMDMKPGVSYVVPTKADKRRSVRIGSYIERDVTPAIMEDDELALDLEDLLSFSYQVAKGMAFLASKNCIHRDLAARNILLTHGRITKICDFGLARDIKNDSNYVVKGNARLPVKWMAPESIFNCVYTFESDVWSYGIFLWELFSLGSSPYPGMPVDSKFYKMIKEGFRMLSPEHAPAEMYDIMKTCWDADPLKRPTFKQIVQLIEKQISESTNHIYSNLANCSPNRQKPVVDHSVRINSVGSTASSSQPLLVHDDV
UniProt Q8IVH8, sequence (whole entry, looked up): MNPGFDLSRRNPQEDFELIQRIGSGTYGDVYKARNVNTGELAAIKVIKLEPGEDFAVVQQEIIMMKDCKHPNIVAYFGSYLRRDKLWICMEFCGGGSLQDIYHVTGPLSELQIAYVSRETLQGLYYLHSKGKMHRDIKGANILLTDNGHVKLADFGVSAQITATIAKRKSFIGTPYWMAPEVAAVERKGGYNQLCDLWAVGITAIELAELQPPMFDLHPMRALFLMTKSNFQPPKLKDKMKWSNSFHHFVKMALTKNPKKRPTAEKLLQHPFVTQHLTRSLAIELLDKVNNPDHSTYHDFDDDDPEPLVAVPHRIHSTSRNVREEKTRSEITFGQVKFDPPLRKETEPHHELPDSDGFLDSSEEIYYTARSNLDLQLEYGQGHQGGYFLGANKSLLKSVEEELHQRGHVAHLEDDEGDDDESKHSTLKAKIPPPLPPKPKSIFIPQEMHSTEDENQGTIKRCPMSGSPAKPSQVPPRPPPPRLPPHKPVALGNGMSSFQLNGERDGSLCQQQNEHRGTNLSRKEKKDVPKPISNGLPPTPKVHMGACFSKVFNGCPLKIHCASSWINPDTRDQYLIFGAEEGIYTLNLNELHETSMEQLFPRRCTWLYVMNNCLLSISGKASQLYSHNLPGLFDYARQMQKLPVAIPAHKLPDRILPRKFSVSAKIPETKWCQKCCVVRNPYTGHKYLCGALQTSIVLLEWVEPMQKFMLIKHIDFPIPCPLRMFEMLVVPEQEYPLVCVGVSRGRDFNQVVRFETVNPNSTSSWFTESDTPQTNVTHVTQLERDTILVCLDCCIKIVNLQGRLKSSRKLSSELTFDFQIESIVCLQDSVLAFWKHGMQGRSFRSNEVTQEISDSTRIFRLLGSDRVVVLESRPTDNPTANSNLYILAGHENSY
UniProt Q96PN8, sequence (whole entry, looked up): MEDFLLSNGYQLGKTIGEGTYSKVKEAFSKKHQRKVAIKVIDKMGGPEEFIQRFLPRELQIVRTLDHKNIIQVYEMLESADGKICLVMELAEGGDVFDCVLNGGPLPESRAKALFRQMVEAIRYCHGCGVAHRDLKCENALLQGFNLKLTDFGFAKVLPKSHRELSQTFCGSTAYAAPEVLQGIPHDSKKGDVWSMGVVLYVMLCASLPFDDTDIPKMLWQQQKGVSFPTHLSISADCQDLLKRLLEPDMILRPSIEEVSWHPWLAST

Sample 1
Target: Diamine acetyltransferase 1 (Homo sapiens, UniProt P21673)
Mode: inhibitor
Concentration: 10 µM
Reference: control
Target sequence (P21673 1-171): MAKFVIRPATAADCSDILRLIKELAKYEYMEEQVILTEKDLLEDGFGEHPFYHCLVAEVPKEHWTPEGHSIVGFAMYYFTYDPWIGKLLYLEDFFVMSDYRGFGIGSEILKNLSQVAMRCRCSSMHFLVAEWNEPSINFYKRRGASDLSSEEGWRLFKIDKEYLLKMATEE
SMILES | remaining activity [%]
O=C(CC(O)(CC(=O)OCc1ccc(O[C@@H]2O[C@H](CO)[C@@H](O)[C@H](O)[C@H]2O)cc1)C(=O)O)OCc1ccc(O[C@@H]2O[C@H](CO)[C@@H](O)[C@H](O)[C@H]2O)cc1 | 94.9
O=C(O)C(=O)O | 100
CC1(C)C(C=C(Cl)Cl)C1C(=O)OCc1cccc(Oc2ccccc2)c1 (stereo not drawn) | 104
O=c1c(-c2ccc(O[C@@H]3O[C@H](CO)[C@@H](O)[C@H](O)[C@H]3O)cc2)coc2cc(O)cc(O)c12 | 101
Cc1ccc(C=O)o1 | 83.1
NC(=O)c1cccnc1 | 115
COc1ccc(-c2cc(=O)c3c(OC)c(OC)c(OC)cc3o2)cc1OC | 96
C[C@]1(O)C[C@@H](O)[C@@H]2C(C(=O)O)=CO[C@@H](O[C@@H]3O[C@H](CO)[C@@H](O)[C@H](O)[C@H]3O)[C@@H]21 | 97.4
CC(C)c1ccc(C=O)cc1 | 92.9
O=C(/C=C/c1ccc(O)c(O)c1)O[C@H]1[C@H](O)C[C@](O)(C(=O)O)C[C@H]1OC(=O)/C=C/c1ccc(O)c(O)c1 | 101
COc1ccc(-c2cc(=O)c3c(O)c(OC)c(OC)cc3o2)cc1 | 89.1
Nc1nc2c(ncn2[C@@H]2O[C@H](CO)[C@@H](O)[C@H]2O)c(=O)[nH]1 | 92.3
C=C1CC/C=C(\C)CC[C@@H]2[C@@H]1CC2(C)C | 98.2
OC[C@@H](O)C(O)[C@@H](O)CO (stereo partly drawn) | 87.9
O=C(O)CO | 101
O=C(O)CCCCCCCCC(=O)O | 103

Sample 2
SMILES: Fc1ccc(-c2nc3n(c2-c2ccncc2)CCS3)cc1
Effect on: enzyme activity
Mode: inhibitor
Concentration: 0.5 µM
Reference: control
target | remaining activity [%]
TGFBR2 (Homo sapiens, UniProt P37173) | 137
GRK3 (Homo sapiens, UniProt P35626) | 95
NEK2 (Homo sapiens, UniProt P51955) | 115
cGMP-dependent protein kinase 1, isoform beta (PRKG1, Homo sapiens, UniProt Q13976) | 95.9
CAMKK2 (Homo sapiens, UniProt Q96RR4) | 99.9
STK10 (Homo sapiens, UniProt O94804) | 94.9
Tyrosine-protein kinase Lyn, isoform B (LYN, Homo sapiens, UniProt P07948) | 106
Cyclin-dependent kinase 5, with p25 (CDK5, Homo sapiens, UniProt Q00535) | 98.2
MAPK9 (Homo sapiens, UniProt P45984) | 90.6
MAP3K3 (Homo sapiens, UniProt Q99759) | 100
STK39 (Homo sapiens, UniProt Q9UEW8) | 103
OXSR1 (Homo sapiens, UniProt O95747) | 92.5
STK11 (Homo sapiens, UniProt Q15831) | 93.8
Cyclin-dependent kinase 4, with cyclin D1 (CDK4, Homo sapiens, UniProt P11802) | 114
CHEK2 (Homo sapiens, UniProt O96017) | 97.7
TGFBR1 (Homo sapiens, UniProt P36897) | 106
Protein kinase C beta type, isoform beta-I (PRKCB, Homo sapiens, UniProt P05771) | 94.2
DAPK1 (Homo sapiens, UniProt P53355) | 100
IKBKE (Homo sapiens, UniProt Q14164) | 101
CAMK2D (Homo sapiens, UniProt Q13557) | 97.1
IKBKB (Homo sapiens, UniProt O14920) | 105
DAPK2 (Homo sapiens, UniProt Q9UIK4) | 113

Sample 3
SMILES: Cc1cccc(/C=N/Nc2cc(N3CCOCC3)nc(OCCc3ccccn3)n2)c1
Cell line: L444P/L444P Gaucher fibroblasts
Method: 4-MUG hydrolysis in lysate
Time: 72 h
Reference: vehicle
conditions | enzyme activity
5 nM | 100% and 112% and 108% and 118% and 98.7% and 117% and 111%
0.5 µM, without ISRIB | 160% and 151% and 163% and 146% and 153% and 178%
50 nM | 195% and 171% and 158% and 154% and 159% and 168%

Sample 4
Structure (SMILES): c1ccc(N2CCN(Cc3nc4ccccc4[nH]3)CC2)nc1
Method: competition with immobilised ligand
Concentration: 1 µM
target | test | remaining binding [%]
ITK (Homo sapiens, UniProt Q08881) | cell-free assay | 100
KIT (Homo sapiens, UniProt P10721, V559D) | binding | 100
Tyrosine-protein kinase ABL1, phosphorylated (ABL1, Homo sapiens, UniProt P00519, E255K) | binding | 100
TSSK3 (Homo sapiens, UniProt Q96PN8) | binding | 92
MARK1 (Homo sapiens, UniProt Q9P0L2) | binding | 100
CDK17 (Homo sapiens, UniProt Q00537) | binding | 100
Tyrosine-protein kinase JAK2, JH1 (JAK2, Homo sapiens, UniProt O60674) | binding | 100
CSK (Homo sapiens, UniProt P41240) | cell-free assay | 100
MKNK2 (Homo sapiens, UniProt Q9HBH9) | binding | 100
PLK3 (Homo sapiens, UniProt Q9H4B4) | binding | 100
TIE1 (Homo sapiens, UniProt P35590) | cell-free assay | 96
PRKD3 (Homo sapiens, UniProt O94806) | binding | 100
eIF-2-alpha kinase GCN2, C-terminal kinase domain (EIF2AK4, Homo sapiens, UniProt Q9P2K8, S808G) | binding | 65
CDK8 (Homo sapiens, UniProt P49336) | binding | 100
Tyrosine-protein kinase ABL1, phosphorylated (ABL1, Homo sapiens, UniProt P00519, Q252H) | binding | 100
MAP4K3 (Homo sapiens, UniProt Q8IVH8) | binding | 100
EIF2AK1 (Homo sapiens, UniProt Q9BQI3) | binding | 100
PIK3C2G (Homo sapiens, UniProt O75747) | binding | 100
WNK2 (Homo sapiens, UniProt Q9Y3S1) | binding | 100
STK33 (Homo sapiens, UniProt Q9BYT3) | binding | 97
PIK3CG (Homo sapiens, UniProt P48736) | cell-free assay | 100
EPHA6 (Homo sapiens, UniProt Q9UF33) | cell-free assay | 100
EPHA3 (Homo sapiens, UniProt P29320) | cell-free assay | 100
COQ8B (Homo sapiens, UniProt Q96D53) | cell-free assay | 100
PHKG1 (Homo sapiens, UniProt Q16816) | cell-free assay | 100

A few entries again (sample 4):
target | test | remaining binding [%]
PRKD3 (Homo sapiens, UniProt O94806) | binding | 100
eIF-2-alpha kinase GCN2, C-terminal kinase domain (EIF2AK4, Homo sapiens, UniProt Q9P2K8, S808G) | binding | 65
CDK8 (Homo sapiens, UniProt P49336) | binding | 100
Tyrosine-protein kinase ABL1, phosphorylated (ABL1, Homo sapiens, UniProt P00519, Q252H) | binding | 100
MAP4K3 (Homo sapiens, UniProt Q8IVH8) | binding | 100
EIF2AK1 (Homo sapiens, UniProt Q9BQI3) | binding | 100
PIK3C2G (Homo sapiens, UniProt O75747) | binding | 100
WNK2 (Homo sapiens, UniProt Q9Y3S1) | binding | 100
